Results collected from several papers.
Protocols differ between the studies behind these lines.
HLA class I histocompatibility antigen, B alpha chain allele B*27:05: HLA class I histocompatibility antigen, B alpha chain, allele B*27:05 (Homo sapiens, UniProt P01889)
HLA class I histocompatibility antigen, B alpha chain allele B*40:01: HLA class I histocompatibility antigen, B alpha chain, allele B*40:01 (Homo sapiens, UniProt P01889)
HLA class I histocompatibility antigen, B alpha chain: HLA class I histocompatibility antigen, B alpha chain (Homo sapiens, UniProt P01889)
HLA class I histocompatibility antigen, B alpha chain allele B*18:01: HLA class I histocompatibility antigen, B alpha chain, allele B*18:01 (Homo sapiens, UniProt P01889)

CC[C@H](C)[C@H](NC(=O)[C@H](CCCNC(=N)N)NC(=O)CNC(=O)[C@H](CC(C)C)NC(=O)[C@@H](NC(=O)[C@H](CC(C)C)NC(=O)[C@H](CC(C)C)NC(=O)[C@H](CCCNC(=N)N)NC(=O)[C@@H](N)CCCNC(=N)N)[C@@H](C)CC)C(=O)O  IC50 (HLA class I histocompatibility antigen, B alpha chain allele B*27:05; peptide binding, fluorescence anisotropy; 18 h, 4 °C): 0.311 µM
CSCC[C@H](NC(=O)[C@H](CO)NC(=O)[C@H](CC(C)C)NC(=O)[C@@H](NC(=O)[C@H](Cc1c[nH]cn1)NC(=O)[C@H](CCCCN)NC(=O)[C@H](Cc1ccccc1)NC(=O)[C@H](CCC(N)=O)NC(=O)[C@@H](N)CCCCN)[C@@H](C)O)C(=O)O  IC50 (HLA class I histocompatibility antigen, B alpha chain allele B*40:01; binding): 5.76 µM
CSCC[C@H](NC(=O)[C@H](C)NC(=O)[C@@H](NC(=O)[C@H](Cc1ccccc1)NC(=O)[C@H](Cc1ccccc1)NC(=O)[C@H](Cc1ccccc1)NC(=O)[C@H](Cc1ccc(O)cc1)NC(=O)[C@H](CCCNC(=N)N)NC(=O)[C@@H](N)Cc1c[nH]cn1)C(C)C)C(=O)O  IC50 (HLA class I histocompatibility antigen, B alpha chain allele B*27:05; peptide binding, fluorescence anisotropy; 18 h, 4 °C): 0.353 µM
CC[C@H](C)[C@H](NC(=O)[C@@H](N)CCC(=O)O)C(=O)N[C@@H](CCCCN)C(=O)N[C@@H](CCC(=O)O)C(=O)N[C@@H](CO)C(=O)N[C@H](C(=O)N[C@@H](CCC(N)=O)C(=O)N[C@H](C(=O)N[C@@H](Cc1ccccc1)C(=O)O)[C@@H](C)O)C(C)C  IC50 (HLA class I histocompatibility antigen, B alpha chain; peptide-MHC binding, radioligand competition binding): > 70 µM
CC[C@H](C)[C@H](NC(=O)CNC(=O)[C@@H](NC(=O)[C@H](CC(N)=O)NC(=O)[C@@H](NC(=O)[C@H](CCCNC(=N)N)NC(=O)[C@@H](N)CCCCN)[C@@H](C)O)C(C)C)C(=O)N[C@@H](CC(C)C)C(=O)N[C@@H](CCCCN)C(=O)O  IC50 (HLA class I histocompatibility antigen, B alpha chain allele B*27:05; peptide binding, fluorescence anisotropy; 18 h, 4 °C): 0.136 µM
CC[C@H](C)[C@H](NC(=O)[C@H](CC(C)C)NC(=O)CN)C(=O)N[C@H](C(=O)N[C@@H](CC(C)C)C(=O)N[C@@H](CO)C(=O)N[C@@H](Cc1ccc(O)cc1)C(=O)N[C@@H](Cc1c[nH]cn1)C(=O)N[C@@H](CC(C)C)C(=O)O)[C@@H](C)O  IC50 (HLA class I histocompatibility antigen, B alpha chain allele B*18:01; peptide-MHC binding, radioligand competition binding): > 70 µM
CC[C@H](C)[C@H](NC(=O)[C@H](CCCNC(=N)N)NC(=O)[C@@H](N)Cc1ccccc1)C(=O)N[C@@H](CS)C(=O)N1CCC[C@H]1C(=O)N[C@H](C(=O)N[C@@H](Cc1ccccc1)C(=O)N[C@H](C(=O)N[C@@H](Cc1ccccc1)C(=O)O)C(C)C)[C@@H](C)CC  IC50 (HLA class I histocompatibility antigen, B alpha chain allele B*27:05; peptide binding, fluorescence anisotropy; 18 h, 4 °C): 0.877 µM
CC[C@H](C)[C@H](NC(=O)[C@H](CCC(N)=O)NC(=O)[C@@H]1CCCN1C(=O)[C@H](Cc1ccc(O)cc1)NC(=O)[C@@H]1CCCN1C(=O)[C@@H](N)CC(C)C)C(=O)N[C@@H](CC(C)C)C(=O)N[C@@H](CC(C)C)C(=O)N[C@@H](CC(C)C)C(=O)O  IC50 (HLA class I histocompatibility antigen, B alpha chain, allele B*51:01 (Homo sapiens, UniProt P01889); binding, competitor): 0.066 µM
CC(C)C[C@H](NC(=O)[C@H](CCCNC(=N)N)NC(=O)[C@H](CC(C)C)NC(=O)[C@H](CC(N)=O)NC(=O)[C@@H](NC(=O)[C@H](C)NC(=O)[C@H](Cc1ccccc1)NC(=O)[C@H](CCCNC(=N)N)NC(=O)[C@H](C)N)C(C)C)C(=O)O  IC50 (HLA class I histocompatibility antigen, B alpha chain allele B*27:05; peptide binding, fluorescence anisotropy; 18 h, 4 °C): 0.008 µM
CC[C@H](C)[C@H](NC(=O)[C@H](CCCCN)NC(=O)[C@H](Cc1ccccc1)NC(=O)[C@H](Cc1ccc(O)cc1)NC(=O)CNC(=O)[C@H](CC(=O)O)NC(=O)[C@@H](NC(=O)[C@H](CC(N)=O)NC(=O)[C@@H](N)CCCCN)[C@@H](C)CC)C(=O)N[C@@H](Cc1ccc(O)cc1)C(=O)O  IC50 (HLA class I histocompatibility antigen, B alpha chain allele B*18:01; peptide-MHC binding, radioligand competition binding): > 70 µM
CC(C)C[C@H](NC(=O)[C@@H]1CCCN1C(=O)[C@H](CCC(N)=O)NC(=O)[C@H](CCCNC(=N)N)NC(=O)[C@H](Cc1c[nH]cn1)NC(=O)[C@H](CC(C)C)NC(=O)[C@H](Cc1ccccc1)NC(=O)[C@H](CCCNC(=N)N)NC(=O)[C@@H](N)CCCCN)C(=O)O  IC50 (HLA class I histocompatibility antigen, B alpha chain allele B*27:05; peptide binding, fluorescence anisotropy; 18 h, 4 °C): 0.073 µM
CC[C@H](C)[C@H](NC(=O)[C@@H](NC(=O)[C@@H](NC(=O)[C@H](CC(N)=O)NC(=O)[C@@H](NC(=O)[C@H](C)NC(=O)[C@@H](N)CC(N)=O)[C@@H](C)O)C(C)C)C(C)C)C(=O)N[C@@H](CCCCN)C(=O)N[C@H](C(=O)O)C(C)C  IC50 (HLA class I histocompatibility antigen, B alpha chain; peptide-MHC binding, radioligand competition binding): > 70 µM
CC[C@H](C)[C@H](NC(=O)[C@H](CCCNC(=N)N)NC(=O)CNC(=O)[C@@H](NC(=O)[C@@H]1CCCN1C(=O)[C@@H](N)CCSC)[C@@H](C)CC)C(=O)N[C@@H](C)C(=O)N[C@@H](CCC(=O)O)C(=O)N[C@@H](CS)C(=O)N[C@H](C(=O)N[C@@H](CC(C)C)C(=O)O)[C@@H](C)CC  IC50 (HLA class I histocompatibility antigen, B alpha chain; binding, competitor, radioligand competition; two days, room temperature, HLA-B*07:02): 5.43 µM
CC(C)C[C@H](NC(=O)[C@H](CCC(N)=O)NC(=O)[C@H](CC(=O)O)NC(=O)[C@H](C)NC(=O)[C@@H](N)Cc1c[nH]cn1)C(=O)N[C@H](C(=O)N1CCC[C@H]1C(=O)N[C@H](C(=O)N[C@@H](Cc1c[nH]c2ccccc12)C(=O)O)[C@@H](C)O)[C@@H](C)O  IC50 (HLA class I histocompatibility antigen, B alpha chain; peptide-MHC binding, radioligand competition binding): > 70 µM
CC(C)[C@H](NC(=O)[C@@H](N)CCCCN)C(=O)N[C@@H](CC(=O)O)C(=O)N1CCC[C@H]1C(=O)N[C@@H](CCCCN)C(=O)N[C@@H](Cc1ccccc1)C(=O)N[C@H](C(=O)N[C@@H](CO)C(=O)N[C@@H](Cc1ccccc1)C(=O)O)[C@@H](C)O  IC50 (HLA class I histocompatibility antigen, B alpha chain allele B*40:01; binding): 52.4 µM
CC[C@H](C)[C@H](NC(=O)[C@@H](NC(=O)[C@@H](NC(=O)[C@H](CC(N)=O)NC(=O)[C@@H](NC(=O)[C@H](CO)NC(=O)[C@H](CC(N)=O)NC(=O)[C@H](CC(C)C)NC(=O)[C@@H](N)Cc1ccc(O)cc1)[C@@H](C)O)C(C)C)[C@@H](C)O)C(=O)O  IC50 (HLA class I histocompatibility antigen, B alpha chain allele B*18:01; peptide-MHC binding, radioligand competition binding): > 70 µM
CSCC[C@H](NC(=O)[C@H](CCC(=O)O)NC(=O)[C@H](CCC(=O)O)NC(=O)[C@@H](N)CCCNC(=N)N)C(=O)N[C@@H](CCC(=O)O)C(=O)N[C@H](C(=O)N[C@@H](Cc1c[nH]cn1)C(=O)N[C@@H](CCC(=O)O)C(=O)N[C@@H](CC(C)C)C(=O)O)C(C)C  IC50 (HLA class I histocompatibility antigen, B alpha chain; binding, competitor, radioligand competition; two days, room temperature, HLA-B*07:02): > 40 µM
CC[C@H](C)[C@H](NC(=O)[C@H](CC(=O)O)NC(=O)[C@H](Cc1ccc(O)cc1)NC(=O)[C@H](CCC(N)=O)NC(=O)[C@@H](N)Cc1ccccc1)C(=O)N1CCC[C@H]1C(=O)N[C@@H](Cc1c[nH]cn1)C(=O)N[C@@H](CCC(=O)O)C(=O)N[C@@H](CCSC)C(=O)O  IC50 (HLA class I histocompatibility antigen, B alpha chain allele B*40:01; binding): 11.1 µM

Some of these lines once more:
CC[C@H](C)[C@H](NC(=O)[C@H](CCCNC(=N)N)NC(=O)[C@@H](N)Cc1ccccc1)C(=O)N[C@@H](CS)C(=O)N1CCC[C@H]1C(=O)N[C@H](C(=O)N[C@@H](Cc1ccccc1)C(=O)N[C@H](C(=O)N[C@@H](Cc1ccccc1)C(=O)O)C(C)C)[C@@H](C)CC  IC50 (HLA class I histocompatibility antigen, B alpha chain allele B*27:05; peptide binding, fluorescence anisotropy; 18 h, 4 °C): 0.877 µM
CC[C@H](C)[C@H](NC(=O)[C@H](CCC(N)=O)NC(=O)[C@@H]1CCCN1C(=O)[C@H](Cc1ccc(O)cc1)NC(=O)[C@@H]1CCCN1C(=O)[C@@H](N)CC(C)C)C(=O)N[C@@H](CC(C)C)C(=O)N[C@@H](CC(C)C)C(=O)N[C@@H](CC(C)C)C(=O)O  IC50 (HLA class I histocompatibility antigen, B alpha chain, allele B*51:01 (Homo sapiens, UniProt P01889); binding, competitor): 0.066 µM
